Experimental data pooled from the literature.
Each line is one published result; not all experiments were run side by side. Values joined by “and” are separate records of one study, mostly repeats; a detail may differ. Numbers after ± are the reported error.
TDP1: Tyrosyl-DNA phosphodiesterase 1 (TDP1, Homo sapiens, UniProt Q9NUW8)
Chain of UniProt Q9NUW8 (whole entry, looked up): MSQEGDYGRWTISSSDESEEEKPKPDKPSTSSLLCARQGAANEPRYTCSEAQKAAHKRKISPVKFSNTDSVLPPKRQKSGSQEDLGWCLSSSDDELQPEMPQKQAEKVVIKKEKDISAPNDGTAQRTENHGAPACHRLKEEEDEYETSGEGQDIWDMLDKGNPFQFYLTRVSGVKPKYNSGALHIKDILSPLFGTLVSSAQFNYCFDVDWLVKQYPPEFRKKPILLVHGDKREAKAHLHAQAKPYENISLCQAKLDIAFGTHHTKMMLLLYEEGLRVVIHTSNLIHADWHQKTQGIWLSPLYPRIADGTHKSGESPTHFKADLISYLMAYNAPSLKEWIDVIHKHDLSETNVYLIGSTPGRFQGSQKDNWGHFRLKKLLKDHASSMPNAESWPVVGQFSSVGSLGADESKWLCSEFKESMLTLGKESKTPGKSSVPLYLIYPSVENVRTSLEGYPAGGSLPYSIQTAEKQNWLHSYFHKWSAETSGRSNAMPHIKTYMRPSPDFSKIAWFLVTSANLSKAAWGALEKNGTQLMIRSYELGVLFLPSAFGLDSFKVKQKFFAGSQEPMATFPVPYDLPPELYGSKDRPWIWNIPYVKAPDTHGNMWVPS

C=CC(=O)N1[C@@H](c2ccc3c(c2)OCO3)c2[nH]c3ccccc3c2C[C@H]1C(=O)N1CCN(C)CC1  log2 fold change (CCNE1 WT-3xFLAG:CDK2 complex; co-IP TMT proteomics, item: CCP110; HEK-293T; 20 µM, 6 h; baseline: DMSO): 0.0566
O=C(O)c1ccc(Nc2c(-c3ccc(CON=Cc4ccc(-c5nnn[nH]5)cc4)cc3)nc3cc(-c4ccccc4)ccn23)cc1  inhibition (TDP1; enzyme activity, inhibitor; 100 µM, unpurified compound): 96.6%
COc1ccccc1-c1ccncc1C(=O)Nc1ccc(OCc2ccc(Cl)cc2)nn1  colony survival (DLD-1 parental (BRCA2 WT); 10 µM, single run; baseline: untreated): 98% and 99% and 97.5%
COC1CN([C@H]2CC[C@H]([C@@]3(C)Oc4c(Cl)cc(C(=O)NCc5c(SC)cc(C)[nH]c5=O)c(C)c4O3)CC2)C1  log2 fold change (RNA-seq, item: DZIP1; human, whole blood; dose not given, 24 h; baseline: pretreatment baseline): 6.52
COCC1CN(C2CCN(c3cc(OC)c(Nc4ncc(Br)c(Nc5ccc6c(c5P(C)(C)=O)OCCO6)n4)cc3C)CC2)C1  progressive disease (RECIST 1.1; advanced EGFR-mutant NSCLC patients; 30 mg once daily): 66.7%
C=CC(=O)Nc1cccc(Cn2ncc3cnc(Nc4cnn(CCOC)c4)nc32)c1  binding (human JNK1; KINOMEscan; 100 nM; baseline: control): 72%
CN1CCCNC(=O)c2cccc(c2)C(=O)NCCCN(C)CCCNc2cccc3c2C(=O)c2cccc(c2C3=O)NCCC1  log2 fold change (SAS; RNA-Seq, item: LMAN2L mRNA; 1 µM, 6 h; baseline: untreated cells): 0.984
COc1cc(O)ccc1CCC(c1ccc(O)cc1)c1cc2c(c(C)c1O)OC(c1ccc(O)cc1)CC2 (mixture of isomers)  15-HETE level (human blood; 30 µM, added: A23187): 563 ± 335 pg/mL
O=C(O)c1ccc(Nc2c(-c3ccc(CON=Cc4cccc(Oc5ncccn5)c4)cc3)nc3cc(-c4ccccc4)ccn23)cc1 (mixture of isomers)  inhibition (TDP1; enzyme activity, inhibitor; 100 µM, unpurified compound): 67.4%
Nc1ncc(-c2cc(-c3cnn(CC(F)(F)F)c3)ncc2F)nc1C(=O)NC1CNCC(F)C1 (stereo not shown)  remaining binding (MST4; KINOMEscan; 1 µM; baseline: DMSO control): 42%
CC(=O)OC[C@H]1O[C@@H](Sc2sc(C(=O)c3ccc(Cl)cc3)c(N)c2-c2nc3ccccc3s2)[C@H](OC(C)=O)[C@@H](OC(C)=O)[C@H]1OC(C)=O  viral reduction (human adenovirus 7; plaque reduction; non-toxic dose NG, mean over three titres): 0%
CCN(CC)CC(=O)Nc1cccc(-n2cc(-c3ccc4ccc(-c5cn(-c6cccc(NC(=O)CN(CC)CC)c6)nn5)cc4c3)nn2)c1  fold regulation (RCC4; PCR angiogenesis array, item: EPHB4; 5 x IC50, 6 h, normoxia; baseline: untreated): -1.06
Cn1ncc2cc(-c3cncc(Cl)c3N3CCC4(CCNC4=O)CC3)ccc21  fold change in expression (LS174T; microarray, item: PAH; concentration not given, 24 h; baseline: untreated cells): 2.03
CO[C@@H]1OC[C@@H](O)[C@H](O)[C@H]1O  inhibition (Helicobacter pylori; microbial growth, broth dilution; 15.63 µg/mL): 0%
Cc1ncsc1-c1ccc(C(C)NC(=O)C2CC(O)CN2C(=O)C(NC(=O)CCCCCCCCCCN2CCCC(Nc3ncc(Cl)c(Nc4ccccc4S(=O)(=O)C(C)C)n3)C2)C(C)(C)C)cc1 (stereo not shown)  log2 fold change (22Rv1; RNA-seq, item: TIGD2 mRNA; concentration not given; baseline: DMSO): -1.54
CC=C(C)C(=O)OC1CC2C(C=C(C)C3C(OC(C)=O)CC(=O)C13C)OC(=O)C2C (stereo not shown)  inhibition (Helicobacter pylori; microbial growth, broth dilution; 7.81 µg/mL): 0%
C=C(NC(=O)c1csc(-c2nc3c(cc2O)-c2nc(cs2)C(=O)NC(C(C)O)C(=O)NC(=C(C)OC)c2nc(cs2)C(=O)NC2c4nc(cs4)C(=O)NC(COC(=O)c4c5c6c(cccc6n4O)COC(=O)C(OC4CC(C)(O)C(N(C)C)C(C)O4)C2OC5)c2nc-3cs2)n1)C(N)=O (stereo not shown)  lung bacterial load (Streptococcus pneumoniae; -25, immunocompromised mice, lung; 4 mg/kg/day once daily, 24 h post-dose): 5.75 log10 CFU/lung
C/C=C(/C)C(=O)O[C@@H]1C=C(C)CC[C@]2(O)[C@@H](C(C)C)CC(=O)[C@]12C  inhibition (Helicobacter pylori; microbial growth, broth dilution; 125 µg/mL): 0%
CNS(=O)(=O)Nc1nccc(Cc2c(C)c3ccc(Oc4ncccc4F)cc3oc2=O)c1F  IC50 (KYSE-450; cell viability; 7 days): > 1000 nM

A few entries again:
C=CC(=O)Nc1cccc(Cn2ncc3cnc(Nc4cnn(CCOC)c4)nc32)c1  binding (human JNK1; KINOMEscan; 100 nM; baseline: control): 72%
Cc1ncsc1-c1ccc(C(C)NC(=O)C2CC(O)CN2C(=O)C(NC(=O)CCCCCCCCCCN2CCCC(Nc3ncc(Cl)c(Nc4ccccc4S(=O)(=O)C(C)C)n3)C2)C(C)(C)C)cc1 (stereo not shown)  log2 fold change (22Rv1; RNA-seq, item: TIGD2 mRNA; concentration not given; baseline: DMSO): -1.54
